Published values pooled from the literature.
A part holds a random share of what one study measured.
Sequence of UniProt P36507 (whole entry, looked up): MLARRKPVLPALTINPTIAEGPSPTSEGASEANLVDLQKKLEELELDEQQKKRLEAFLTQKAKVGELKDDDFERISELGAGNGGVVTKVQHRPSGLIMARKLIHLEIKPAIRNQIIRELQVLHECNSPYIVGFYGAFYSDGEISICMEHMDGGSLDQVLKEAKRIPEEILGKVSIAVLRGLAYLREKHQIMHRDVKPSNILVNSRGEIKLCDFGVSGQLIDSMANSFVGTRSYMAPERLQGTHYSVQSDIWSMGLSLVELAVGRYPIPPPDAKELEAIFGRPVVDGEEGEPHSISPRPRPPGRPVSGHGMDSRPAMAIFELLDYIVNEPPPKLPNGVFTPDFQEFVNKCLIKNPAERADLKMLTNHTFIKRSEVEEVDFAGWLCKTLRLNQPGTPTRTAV
Sequence of UniProt P06213 (whole entry, looked up): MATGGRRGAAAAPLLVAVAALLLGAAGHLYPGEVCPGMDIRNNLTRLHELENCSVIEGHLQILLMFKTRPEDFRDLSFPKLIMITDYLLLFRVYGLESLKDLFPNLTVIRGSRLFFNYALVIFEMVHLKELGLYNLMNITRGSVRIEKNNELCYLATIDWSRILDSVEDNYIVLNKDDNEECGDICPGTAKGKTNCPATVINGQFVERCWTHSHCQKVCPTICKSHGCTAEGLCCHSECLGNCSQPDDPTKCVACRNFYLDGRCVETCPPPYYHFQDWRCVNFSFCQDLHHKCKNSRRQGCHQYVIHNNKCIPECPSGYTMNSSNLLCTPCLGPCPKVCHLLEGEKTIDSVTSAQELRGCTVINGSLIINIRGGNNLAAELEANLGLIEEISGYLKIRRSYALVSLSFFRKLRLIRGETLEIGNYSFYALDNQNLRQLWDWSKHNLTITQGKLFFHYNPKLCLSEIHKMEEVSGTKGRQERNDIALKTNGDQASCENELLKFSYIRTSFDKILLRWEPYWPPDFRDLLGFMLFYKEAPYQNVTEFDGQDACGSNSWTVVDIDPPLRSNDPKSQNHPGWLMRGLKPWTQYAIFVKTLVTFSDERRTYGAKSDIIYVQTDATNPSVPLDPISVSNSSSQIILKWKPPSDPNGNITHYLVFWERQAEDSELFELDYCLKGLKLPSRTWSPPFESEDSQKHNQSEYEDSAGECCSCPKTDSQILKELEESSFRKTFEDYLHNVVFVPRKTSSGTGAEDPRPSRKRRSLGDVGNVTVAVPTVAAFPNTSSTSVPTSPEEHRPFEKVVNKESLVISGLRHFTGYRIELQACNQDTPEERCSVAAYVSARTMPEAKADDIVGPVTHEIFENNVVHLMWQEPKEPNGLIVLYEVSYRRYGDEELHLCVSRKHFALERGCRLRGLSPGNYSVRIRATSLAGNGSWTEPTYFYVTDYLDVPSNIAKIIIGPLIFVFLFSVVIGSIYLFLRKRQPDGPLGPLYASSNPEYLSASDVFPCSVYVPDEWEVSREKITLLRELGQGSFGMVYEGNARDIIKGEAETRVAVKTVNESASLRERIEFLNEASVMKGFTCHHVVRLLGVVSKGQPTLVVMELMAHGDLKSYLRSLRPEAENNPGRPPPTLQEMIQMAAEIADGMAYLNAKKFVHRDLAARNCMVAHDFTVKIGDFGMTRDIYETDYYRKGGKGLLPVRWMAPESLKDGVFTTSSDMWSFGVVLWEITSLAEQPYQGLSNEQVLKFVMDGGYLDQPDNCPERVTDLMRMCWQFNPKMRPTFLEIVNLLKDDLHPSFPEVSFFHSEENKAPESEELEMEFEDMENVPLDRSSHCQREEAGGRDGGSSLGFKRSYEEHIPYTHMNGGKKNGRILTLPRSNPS
Sequence of UniProt P54764 (whole entry, looked up): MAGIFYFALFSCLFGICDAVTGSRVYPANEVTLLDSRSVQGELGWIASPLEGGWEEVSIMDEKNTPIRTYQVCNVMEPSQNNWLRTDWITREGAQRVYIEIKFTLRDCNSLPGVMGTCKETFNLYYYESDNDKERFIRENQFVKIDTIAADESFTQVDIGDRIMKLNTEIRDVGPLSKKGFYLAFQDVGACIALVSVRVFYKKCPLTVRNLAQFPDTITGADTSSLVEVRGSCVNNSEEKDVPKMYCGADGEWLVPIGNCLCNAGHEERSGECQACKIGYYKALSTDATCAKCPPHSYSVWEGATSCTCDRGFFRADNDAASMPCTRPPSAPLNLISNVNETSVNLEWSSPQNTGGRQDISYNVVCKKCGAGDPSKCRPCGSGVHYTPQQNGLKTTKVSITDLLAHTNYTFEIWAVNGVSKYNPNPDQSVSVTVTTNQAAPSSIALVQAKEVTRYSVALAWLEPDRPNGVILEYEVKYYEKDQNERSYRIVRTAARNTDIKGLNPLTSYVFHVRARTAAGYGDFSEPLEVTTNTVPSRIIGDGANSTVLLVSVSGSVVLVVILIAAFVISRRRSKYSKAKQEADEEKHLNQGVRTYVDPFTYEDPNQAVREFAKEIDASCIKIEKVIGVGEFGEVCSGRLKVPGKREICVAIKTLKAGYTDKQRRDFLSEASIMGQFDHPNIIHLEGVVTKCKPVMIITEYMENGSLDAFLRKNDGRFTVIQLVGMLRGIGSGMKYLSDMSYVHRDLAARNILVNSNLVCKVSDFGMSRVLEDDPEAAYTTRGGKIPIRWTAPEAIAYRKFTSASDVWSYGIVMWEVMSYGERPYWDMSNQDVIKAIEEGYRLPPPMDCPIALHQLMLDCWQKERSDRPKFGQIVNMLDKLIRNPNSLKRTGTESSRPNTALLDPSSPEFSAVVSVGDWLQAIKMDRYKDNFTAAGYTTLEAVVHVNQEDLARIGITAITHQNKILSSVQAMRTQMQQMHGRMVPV
Sequence of UniProt Q15375 (whole entry, looked up): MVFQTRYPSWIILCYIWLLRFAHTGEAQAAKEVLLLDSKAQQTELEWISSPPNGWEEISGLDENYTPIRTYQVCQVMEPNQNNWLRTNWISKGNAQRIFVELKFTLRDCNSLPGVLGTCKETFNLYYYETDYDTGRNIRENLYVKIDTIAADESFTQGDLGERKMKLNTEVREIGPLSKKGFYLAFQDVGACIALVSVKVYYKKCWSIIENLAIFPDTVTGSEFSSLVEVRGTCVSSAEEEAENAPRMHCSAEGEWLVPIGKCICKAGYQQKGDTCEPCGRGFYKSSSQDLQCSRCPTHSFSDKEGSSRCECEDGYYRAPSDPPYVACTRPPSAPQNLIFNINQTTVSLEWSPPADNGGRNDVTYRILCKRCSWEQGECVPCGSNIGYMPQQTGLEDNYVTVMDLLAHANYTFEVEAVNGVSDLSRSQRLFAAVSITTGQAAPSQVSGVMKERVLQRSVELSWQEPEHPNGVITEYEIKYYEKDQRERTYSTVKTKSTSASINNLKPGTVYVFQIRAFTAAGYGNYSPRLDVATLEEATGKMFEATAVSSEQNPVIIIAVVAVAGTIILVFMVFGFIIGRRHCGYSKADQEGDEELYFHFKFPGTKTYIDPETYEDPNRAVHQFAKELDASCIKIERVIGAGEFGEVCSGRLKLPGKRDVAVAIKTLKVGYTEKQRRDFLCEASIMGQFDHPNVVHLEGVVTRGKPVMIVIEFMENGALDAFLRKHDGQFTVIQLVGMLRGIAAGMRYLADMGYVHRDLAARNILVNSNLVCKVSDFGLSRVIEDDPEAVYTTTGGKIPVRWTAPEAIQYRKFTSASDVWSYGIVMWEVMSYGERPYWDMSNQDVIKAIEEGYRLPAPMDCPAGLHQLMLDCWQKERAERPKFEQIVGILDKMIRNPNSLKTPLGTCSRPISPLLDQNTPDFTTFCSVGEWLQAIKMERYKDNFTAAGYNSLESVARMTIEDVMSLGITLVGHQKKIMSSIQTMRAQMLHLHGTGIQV
Sequence of UniProt Q96PN8 (whole entry, looked up): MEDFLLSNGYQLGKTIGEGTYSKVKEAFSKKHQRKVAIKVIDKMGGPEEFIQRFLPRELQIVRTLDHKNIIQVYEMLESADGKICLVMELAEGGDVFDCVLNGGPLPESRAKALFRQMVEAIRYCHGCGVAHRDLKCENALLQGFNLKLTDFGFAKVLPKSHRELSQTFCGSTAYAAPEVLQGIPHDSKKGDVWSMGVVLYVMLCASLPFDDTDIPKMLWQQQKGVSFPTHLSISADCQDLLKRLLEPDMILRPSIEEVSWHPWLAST

Sample 1
Target: Calcium/calmodulin-dependent protein kinase type II subunit alpha (CAMK2A, Homo sapiens, UniProt Q9UQM7)
Sequence of UniProt Q9UQM7 (whole entry, looked up): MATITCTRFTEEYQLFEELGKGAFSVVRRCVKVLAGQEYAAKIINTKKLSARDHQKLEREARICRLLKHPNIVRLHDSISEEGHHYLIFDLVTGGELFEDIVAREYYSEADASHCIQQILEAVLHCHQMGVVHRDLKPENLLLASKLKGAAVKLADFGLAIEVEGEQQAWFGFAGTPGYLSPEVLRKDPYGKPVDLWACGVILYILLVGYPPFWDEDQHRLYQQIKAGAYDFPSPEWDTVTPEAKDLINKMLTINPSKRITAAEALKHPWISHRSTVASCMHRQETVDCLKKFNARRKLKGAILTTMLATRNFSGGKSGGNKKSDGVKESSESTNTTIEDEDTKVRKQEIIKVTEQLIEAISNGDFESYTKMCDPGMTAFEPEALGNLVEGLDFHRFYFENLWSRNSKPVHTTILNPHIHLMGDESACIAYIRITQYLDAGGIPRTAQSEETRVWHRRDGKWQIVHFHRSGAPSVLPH
Read-out: enzyme activity
Mode: inhibitor
Tested at: 10 µM
`C=CCc1ccc(OC(C)=O)c(OC)c1` has an inhibition of 9%.
`C=C[C@]1(C)C[C@@H](OC(=O)CS[C@@H]2C[C@H]3CC[C@@H](C2)N3C)[C@]2(C)[C@H](C)CC[C@]3(CCC(=O)[C@H]32)[C@@H](C)[C@@H]1O` gave an inhibition of -6%.
The inhibition of `COc1cccc(N2CCN(C3=Nc4c(F)cccc4[C@H](CC(=O)O)N3c3cc(C(F)(F)F)ccc3OC)CC2)c1` is reported as -12%.
The inhibition of `COc1ccc2c(c1)OC(O)C(=O)N2O` (stereo not shown) is reported as 6%.
The inhibition of `CC1(C)[C@@H](O)CC[C@]2(C)[C@H]3CC=C4[C@@H]5C[C@@]6(C)C[C@H](OC6=O)[C@]5(C)CC[C@@]4(C)[C@]3(C)CC[C@@H]12` is reported as -25%.
`C[C@@H]1O[C@@H](O[C@H]2[C@H](O[C@H]3CC[C@]4(C)[C@H]5CC=C6[C@@H]7CC(C)(C)CC[C@]7(C(=O)O[C@@H]7O[C@H](CO[C@@H]8O[C@H](CO)[C@@H](O[C@@H]9O[C@@H](C)[C@H](O)[C@@H](O)[C@H]9O)[C@H](O)[C@H]8O)[C@@H](O)[C@H](O)[C@H]7O)CC[C@@]6(C)[C@]5(C)CC[C@H]4C3(C)C)OC[C@H](O)[C@@H]2O)[C@H](O)[C@H](O)[C@H]1O` has an inhibition of 8%.
`Nc1ncn([C@H]2C[C@H](O)[C@@H](CO)O2)c(=O)n1` gave an inhibition of 0%.
The inhibition of `C=C1C(=O)O[C@@H]2/C=C(\C)CC/C=C(\C)CC[C@@H]12` is reported as -1%.
`OCCN1CCN(CCCN2c3ccccc3Sc3ccc(Cl)cc32)CC1` gave an inhibition of -7%.
With `O=C(CCCN1CCN(c2ccccn2)CC1)c1ccc(F)cc1` the inhibition was -17%.
`CC/C=C\C/C=C\C/C=C\C/C=C\C/C=C\CCCC(=O)O` has an inhibition of -4%.
`O=C(O)[C@H](O)[C@@H](O)[C@H](O[C@@H]1O[C@H](CO)[C@H](O)[C@H](O)[C@H]1O)[C@H](O)CO` has an inhibition of -15%.
The inhibition of `CC(C)(O)CC(=O)O` is reported as -19%.
The inhibition of `C[C@H]1CNCCCN1S(=O)(=O)c1cccc2cncc(F)c12` is reported as 3%.
`CCCCCCCC=O` has an inhibition of -2%.
For `C/C=C(/C)C(=O)O[C@H]1Cc2cc3ccc(=O)oc3cc2OC1(C)C`, the inhibition was 45%.
`NC(=O)c1ncn([C@@H]2O[C@H](CO)[C@@H](O)[C@H]2O)c1N` has an inhibition of 13%.
For `CC(=O)O[C@H]1CC/C(C)=C/CC/C(C)=C/C[C@]2(C(C)C)CC[C@@]1(C)O2`, the inhibition was -2%.

Sample 2
Target: Tyrosine-protein kinase Yes (YES1, Homo sapiens, UniProt P07947)
Sequence of UniProt P07947 (whole entry, looked up): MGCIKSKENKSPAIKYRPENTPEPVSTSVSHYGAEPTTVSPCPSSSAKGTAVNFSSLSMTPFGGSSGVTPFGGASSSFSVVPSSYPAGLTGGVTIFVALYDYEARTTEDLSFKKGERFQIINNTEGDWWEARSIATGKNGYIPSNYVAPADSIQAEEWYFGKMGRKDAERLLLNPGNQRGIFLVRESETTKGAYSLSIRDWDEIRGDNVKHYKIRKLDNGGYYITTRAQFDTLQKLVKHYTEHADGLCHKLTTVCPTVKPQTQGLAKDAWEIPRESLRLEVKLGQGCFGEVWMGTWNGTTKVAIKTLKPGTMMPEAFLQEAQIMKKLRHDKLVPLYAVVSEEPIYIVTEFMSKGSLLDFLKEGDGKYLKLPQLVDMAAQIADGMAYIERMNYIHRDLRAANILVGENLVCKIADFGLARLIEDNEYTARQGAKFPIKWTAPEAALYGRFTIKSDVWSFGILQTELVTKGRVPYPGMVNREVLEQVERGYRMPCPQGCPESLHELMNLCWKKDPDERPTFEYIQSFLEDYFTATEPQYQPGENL
Read-out: enzyme activity
Mode: inhibitor
Tested at: 0.5 µM
Reference: control
The remaining activity of `Cc1cc(Nc2nc(-c3ccccc3)nc3ccccc23)n[nH]1` is reported as 20.4%.
The remaining activity of `CC(C)(C)n1nc(Cc2cccc3ccccc23)c2c(N)ncnc21` is reported as 18.6%.
For `Nc1ncnc2c1cnn2-c1ccccc1`, the remaining activity was 93.7%.
With `Nc1nc(Nc2ccc(S(N)(=O)=O)cc2)nn1C(=O)c1c(F)cccc1F` the remaining activity was 50.6%.
`Fc1ccc(-c2nc3n(c2-c2ccncc2)CCS3)cc1` has a remaining activity of 99.4%.
`CCc1[nH]c(-c2ccc(OC)cc2)nc1-c1ccncc1` has a remaining activity of 95.1%.
For `CCCC(=O)Oc1ccc2[nH]c(C(=O)c3cc4ccccc4[nH]3)cc2c1`, the remaining activity was 84.4%.
`CSc1nc(-c2ccnc(N[C@@H](C)c3ccccc3)c2)c(-c2ccc(F)cc2)[nH]1` (racemic) has a remaining activity of 91.8%.
`Cc1cncc2cccc(S(=O)(=O)N3CCCN(C(=O)CN)C[C@@H]3C)c12` has a remaining activity of 92%.
With `COc1ccc(S(=O)(=O)N(CCO)c2ccccc2CN(C)CC=Cc2ccc(Cl)cc2)cc1` the remaining activity was 103%.
For `O=C1Cc2c([nH]c3ccc([N+](=O)[O-])cc23)-c2ccccc2N1`, the remaining activity was 42.3%.
The remaining activity of `CC[n+]1c(/C=C/N(C)c2ccccc2)n(-c2ccccc2)c2ccc(-c3nc4ccccc4s3)cc21` is reported as 94.9%.
The remaining activity of `CC(=O)c1ccc(N2CCOCC2)cc1O` is reported as 100%.
`Nc1nccc(-c2c(-c3ccc(F)cc3)ncn2C2CCNCC2)n1` gave a remaining activity of 85.3%.
`N#CC(=C(N)Sc1ccc(N)cc1)c1ccccc1C(F)(F)F` gave a remaining activity of 111%.
The remaining activity of `O=S(=O)(NCCNC/C=C/c1ccc(Br)cc1)c1cccc2cnccc12` is reported as 91.6%.
For `O=C1NC(=O)C(c2c[nH]c3ccccc23)=C1c1c[nH]c2ccccc12`, the remaining activity was 88.4%.
For `Oc1ccc(Nc2nc(-c3ccc(Cl)cc3)cs2)cc1`, the remaining activity was 99.2%.
With `CC#CC(=O)Nc1cc2c(Nc3ccc(F)c(Cl)c3)ncnc2cn1` the remaining activity was 82.3%.
`NC(=O)c1ccc(N(C(N)=O)c2c(F)cccc2F)nc1-c1ccc(F)cc1F` gave a remaining activity of 97.8%.
`COc1cc(Nc2c(C#N)cnc3cc(OCCCN4CCN(C)CC4)c(OC)cc23)c(Cl)cc1Cl` gave a remaining activity of 7.29%.
For `Cc1ccc(NC2=CC(=O)c3sc(C)nc3C2=O)cc1`, the remaining activity was 86.7%.

Sample 3
SMILES: C[C@H](c1cccc(C#N)c1)n1cc(Cl)cc(C(N)=O)c1=N
Read-out: cell-free assay
Technique: competition with immobilised ligand
Tested at: 1 µM
For Receptor tyrosine-protein kinase erbB-3 (ERBB3, Homo sapiens, UniProt P21860): remaining binding read 92%.
Dual specificity testis-specific protein kinase 1 (TESK1, Homo sapiens, UniProt Q15569) — remaining binding: 86%.
It gave 100% for remaining binding (Death-associated protein kinase 1 (DAPK1, Homo sapiens, UniProt P53355)).
The remaining binding was 100% (Calcium/calmodulin-dependent protein kinase type 1G (CAMK1G, Homo sapiens, UniProt Q96NX5)).
It gave 98% for remaining binding (Ephrin type-A receptor 7 (EPHA7, Homo sapiens, UniProt Q15375)).
Dual specificity mitogen-activated protein kinase kinase 2 (MAP2K2, Homo sapiens, UniProt P36507) — remaining binding: 80%.
For Serine/threonine-protein kinase D2 (PRKD2, Homo sapiens, UniProt Q9BZL6): remaining binding read 58%.
For Phosphatidylinositol 3-kinase catalytic subunit type 3 (PIK3C3, Homo sapiens, UniProt Q8NEB9): remaining binding read 78%.
It gave 100% for remaining binding (Myosin light chain kinase, smooth muscle (MYLK, Homo sapiens, UniProt Q15746)).
The remaining binding was 100% (Cyclin-dependent kinase 14 (CDK14, Homo sapiens, UniProt O94921)).
Serine/threonine-protein kinase PLK2 (PLK2, Homo sapiens, UniProt Q9NYY3) — remaining binding: 92%.
It gave 97% for remaining binding (Insulin receptor (INSR, Homo sapiens, UniProt P06213)).
For Receptor-interacting serine/threonine-protein kinase 1 (RIPK1, Homo sapiens, UniProt Q13546): remaining binding read 100%.
NT-3 growth factor receptor (NTRK3, Homo sapiens, UniProt Q16288) — remaining binding: 96%.
The remaining binding was 99% (Phosphatidylinositol 4,5-bisphosphate 3-kinase catalytic subunit delta isoform (PIK3CD, Homo sapiens, UniProt O00329)).
For Testis-specific serine/threonine-protein kinase 3 (TSSK3, Homo sapiens, UniProt Q96PN8): remaining binding read 100%.
For Mast/stem cell growth factor receptor Kit (KIT, Homo sapiens, UniProt P10721, D816V): remaining binding read 87%.
For Ephrin type-A receptor 4 (EPHA4, Homo sapiens, UniProt P54764): remaining binding read 65%.
The remaining binding was 97% (Epidermal growth factor receptor (EGFR, Homo sapiens, UniProt P00533, del747-752/P753S)).
The remaining binding was 94% (5'-AMP-activated protein kinase catalytic subunit alpha-2 (PRKAA2, Homo sapiens, UniProt P54646)).
The remaining binding was 100% (Serine/threonine-protein kinase PAK 6 (PAK6, Homo sapiens, UniProt Q9NQU5)).
It gave 100% for remaining binding (Phosphatidylinositol 4-phosphate 3-kinase C2 domain-containing subunit beta (PIK3C2B, Homo sapiens, UniProt O00750)).
It gave 99% for remaining binding (Casein kinase I isoform gamma-2 (CSNK1G2, Homo sapiens, UniProt P78368)).
For Fibroblast growth factor receptor 4 (FGFR4, Homo sapiens, UniProt P22455): remaining binding read 87%.
It gave 45% for remaining binding (eIF-2-alpha kinase GCN2, C-terminal kinase domain (EIF2AK4, Homo sapiens, UniProt Q9P2K8, S808G)).

Sample 4
Technique: logD(dd/w) and ALogP
Notes: JT method
`CC(C)C[C@@H]1NC(=O)[C@H](CC(C)C)NC(=O)[C@H](CC(C)C)NC(=O)[C@H](CC(C)C)NC(=O)[C@@H](Cc2cscn2)NC(=O)[C@H](CCC(=O)N2CCCC2)NC(=O)[C@H](C)NC1=O`: “lipophilic permeability efficiency” 1.64.
`CC(C)C[C@@H]1NC(=O)[C@H](CC(C)C)NC(=O)[C@@H](CC(C)C)NC(=O)[C@@H](C)NC(=O)[C@H](C(C)C)NC(=O)[C@H](Cc2cscn2)NC(=O)[C@H](C)NC1=O` — result for “lipophilic permeability efficiency”: 2.27.
Under “lipophilic permeability efficiency”, `CC(C)C[C@@H]1NC(=O)[C@H](C)NC(=O)[C@@H](CC(C)C)NC(=O)[C@H](C)NC(=O)[C@H](C(C)C)NC(=O)[C@H](CC(C)C)NC(=O)[C@@H](CC(C)C)NC1=O` is recorded as 2.6.
Under “lipophilic permeability efficiency”, `CC(C)C[C@@H]1NC(=O)[C@H](C(C)C)NC(=O)[C@H](CCC(=O)N2CCCC2)NC(=O)[C@H](CCC(=O)N2CCCC2)NC(=O)[C@@H](Cc2cscn2)NC(=O)[C@H](CC(C)C)NC(=O)[C@@H](CC(C)C)NC1=O` is recorded as 1.41.
`CC(C)C[C@@H]1NC(=O)[C@H](CC(C)C)NC(=O)[C@@H](CC(C)C)NC(=O)[C@@H](C(C)C)NC(=O)[C@H](C)NC(=O)[C@H](CC(C)C)NC(=O)[C@@H](CC(C)C)NC1=O`: “lipophilic permeability efficiency” 3.1.
`CC(C)C[C@@H]1NC(=O)[C@H](CC(C)C)NC(=O)[C@@H](CC(C)C)NC(=O)[C@H](Cc2cscn2)NC(=O)[C@@H](Cc2cscn2)NC(=O)[C@H](Cc2cscn2)NC(=O)[C@H](CCC(=O)N2CCCC2)NC1=O`: “lipophilic permeability efficiency” 1.94.
For `CC(C)C[C@@H]1NC(=O)[C@H](C)NC(=O)[C@@H](CC(C)C)NC(=O)[C@@H](CC(C)C)NC(=O)[C@H](C)NC(=O)[C@H](CC(C)C)NC(=O)[C@@H](CC(C)C)NC1=O`, “lipophilic permeability efficiency” read 2.87.
For `CC(C)C[C@@H]1NC(=O)[C@H](C)NC(=O)[C@H](Cc2cscn2)NC(=O)[C@H](C)NC(=O)[C@@H](CCC(=O)N2CCCC2)NC(=O)[C@H](CC(C)C)NC(=O)[C@@H](CC(C)C)NC1=O`, “lipophilic permeability efficiency” read 1.97.
Under “lipophilic permeability efficiency”, `CC(C)C[C@@H]1NC(=O)[C@H](CCC(=O)N2CCCC2)NC(=O)[C@@H](C(C)C)NC(=O)[C@H](C)NC(=O)[C@H](CC(C)C)NC(=O)[C@@H](CC(C)C)NC(=O)[C@H](CC(C)C)NC1=O` is recorded as 1.93.
`CC(C)C[C@@H]1NC(=O)[C@H](C)NC(=O)[C@@H](CC(C)C)NC(=O)[C@H](C)NC(=O)[C@H](CC(C)C)NC(=O)[C@H](CC(C)C)NC(=O)[C@H](C)NC1=O` — result for “lipophilic permeability efficiency”: 2.33.
For `CC(C)C[C@@H]1NC(=O)[C@H](CC(C)C)NC(=O)[C@H](CC(C)C)NC(=O)[C@H](C(C)C)NC(=O)[C@H](C)NC(=O)[C@H](C)NC(=O)[C@H](CCC(=O)N2CCCC2)NC1=O`, “lipophilic permeability efficiency” read 1.74.

Some of these lines once more (sample 2):
For `CCCC(=O)Oc1ccc2[nH]c(C(=O)c3cc4ccccc4[nH]3)cc2c1`, the remaining activity was 84.4%.
`CSc1nc(-c2ccnc(N[C@@H](C)c3ccccc3)c2)c(-c2ccc(F)cc2)[nH]1` (racemic) has a remaining activity of 91.8%.
`Cc1cncc2cccc(S(=O)(=O)N3CCCN(C(=O)CN)C[C@@H]3C)c12` has a remaining activity of 92%.
With `COc1ccc(S(=O)(=O)N(CCO)c2ccccc2CN(C)CC=Cc2ccc(Cl)cc2)cc1` the remaining activity was 103%.
For `O=C1Cc2c([nH]c3ccc([N+](=O)[O-])cc23)-c2ccccc2N1`, the remaining activity was 42.3%.
The remaining activity of `CC[n+]1c(/C=C/N(C)c2ccccc2)n(-c2ccccc2)c2ccc(-c3nc4ccccc4s3)cc21` is reported as 94.9%.
The remaining activity of `CC(=O)c1ccc(N2CCOCC2)cc1O` is reported as 100%.
`Nc1nccc(-c2c(-c3ccc(F)cc3)ncn2C2CCNCC2)n1` gave a remaining activity of 85.3%.
